Values quoted from earlier work, collected from citations in different studies.
Lines come from different studies, so protocols differ. pEC50, pIC50: −log10 of the molar value. Converted amounts (≈) assume the structure as drawn.
lasR: Transcriptional activator protein LasR (lasR, Pseudomonas aeruginosa, UniProt P25084)
UniProt P25084, sequence (whole entry, looked up): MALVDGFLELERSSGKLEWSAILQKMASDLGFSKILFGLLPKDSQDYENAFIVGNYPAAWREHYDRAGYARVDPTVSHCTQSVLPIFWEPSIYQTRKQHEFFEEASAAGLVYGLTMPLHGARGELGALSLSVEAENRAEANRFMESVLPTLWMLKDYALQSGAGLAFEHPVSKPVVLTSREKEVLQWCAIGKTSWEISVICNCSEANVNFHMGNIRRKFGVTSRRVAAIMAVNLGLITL

COc1ccc2nnn(CC(=O)N(Cc3ccccn3)c3ccc(C4CCNCC4)cc3)c2c1  inhibition (main protease (Mpro); 50 µM): 94.8%
Cc1[nH]c2ccccc2c1CC(=O)N[C@@H](Cc1ccccc1)C(=O)N(C)c1ccccc1  ΔTm (HIV-1 capsid hexamer wild type): 7.4 °C
CC(=O)OC12COC1CC(O)C1(C)C(=O)C(OC(=O)N(C)C)C3=C(C)C(OC(=O)C(O)C(C=C(C)C)NC(=O)OC(C)(C)C)CC(O)(C(OC(=O)c4cccc(OC(F)(F)F)c4)C21)C3(C)C (stereo not drawn)  pIC50 (HCT-116; cytotoxicity): 8.75
CS(=O)(=O)c1ccc(N2CCNCC2)cc1  inhibition (main protease (Mpro); 50 µM): 5.05%
CCCCCCC#Cc1cncc(-c2nnc(SCc3cc([N+](=O)[O-])cc([N+](=O)[O-])c3)n2C)c1  pIC50 (Mycobacterium tuberculosis; MABA; Erdman wild type): 6.47
CCCCCCCCCC(=O)CC(=O)Nc1ccccc1O  inhibition (lasR; lasI-gfp(LVA) reporter, inhibitor; PAO-JP2; 100 µM): 90%
CC(C)[C@H](NC(=O)[C@H](CCCNC(=N)N)NC(=O)[C@H](Cc1ccccc1)NC(=O)[C@H](CS)NC(=O)[C@H](Cc1c[nH]c2ccccc12)NC(=O)[C@@H](N)CCCCN)C(=O)N[C@@H](CS)C(=O)N[C@@H](Cc1c[nH]c2ccccc12)C(=O)N[C@@H](CCCNC(=N)N)C(=O)N[C@@H](Cc1c[nH]c2ccccc12)C(=O)N[C@@H](Cc1ccccc1)C(=O)N[C@@H](CS)C(=O)N[C@@H](Cc1c[nH]c2ccccc12)C(=O)N[C@@H](CCCNC(=N)N)C(=O)N[C@@H](CCCCN)C(=O)N[C@@H](CS)C(=O)N[C@@H](CCCNC(=N)N)C(=O)O  MIC (Staphylococcus aureus): 32 µM (≈ 78.4 µg/mL)
CC[C@H](C)[C@H](NC(=O)[C@H](CCCN)NC(=O)[C@H](CCCNC(=N)N)NC(=O)[C@@H]1CCCN1C(=O)[C@@H]1CCCN1C(=O)[C@H](CCCNC(=N)N)NC(=O)[C@@H]1CCCN1C(=O)[C@H](CCCNC(=N)N)NC(=O)[C@@H]1CCCN1C(=O)[C@H](CC(C)C)NC(=O)[C@H](Cc1ccc(O)cc1)NC(=O)[C@@H]1CCCN1C(=O)[C@@H]1CCCN1C(=O)[C@H](CCCCN)NC(=O)[C@H](CC(=O)O)NC(=O)[C@@H](N)C(C)C)C(=O)N[C@@H](Cc1ccc(O)cc1)C(=O)N[C@@H](CC(N)=O)C(=O)N[C@@H](CCCN)C(N)=O  elimination half-life (mouse; intraperitoneal, dose not given): ~14 min
N#Cc1ccnc(N2C(=O)CC[C@H]2C(=O)N(c2cncc(F)c2)[C@H](C(=O)NC2CC(F)(F)C2)c2ccccc2Cl)c1  rate, progression-free survival, 6 month (pretreated mIDH1 cholangiocarcinoma patients; dose not given, trial): 40%
COC1C2(O)C(=O)N3C=CC(C)(C)c4[nH]c5ccccc5c4C=C3C(=O)N2C23C(C)C(C)(C)N2c2ccccc2C13O (stereo not drawn)  concentration for inward current (GABA-gated chloride channel, Bombyx mori; larval neurons; blocked by fipronil): ≥ 300 nM
CC(C)[C@H](NC(=O)CNC(=O)CNC(=O)[C@H](Cc1ccc(O)cc1)NC(=O)[C@H](CS)NC(=O)[C@@H](NC(=O)[C@H](Cc1c[nH]c2ccccc12)NC(=O)[C@H](Cc1ccccc1)NC(=O)[C@H](CS)NC(=O)[C@H](Cc1c[nH]c2ccccc12)NC(=O)[C@@H](N)CCCNC(=N)N)C(C)C)C(=O)N[C@@H](CS)C(=O)N[C@@H](Cc1ccc(O)cc1)C(=O)N[C@@H](CCCNC(=N)N)C(=O)N[C@@H](CCCNC(=N)N)C(=O)N[C@@H](CS)C(=O)N[C@@H](CCCNC(=N)N)C(=O)O  MIC (Escherichia coli): > 128 µM
CN1CC[C@]23c4c5ccc(O)c4O[C@H]2[C@H](O)CC[C@@]3(O)[C@H]1C5  ED50 (analgesia, Haffner tail-clip test; mouse; subcutaneous): 1.7 mg/kg
CCn1c(C)c(CC(=O)N[C@@H](Cc2ccccc2)C(=O)N(C)c2ccc(F)cc2)c2ccccc21  ΔTm (HIV-1 capsid hexamer wild type): 10.7 °C
CC[C@H](C)[C@H](NC(=O)[C@H](CCCCN)NC(=O)[C@H](CCC(=O)O)NC(=O)[C@@H](NC(=O)[C@H](CCCNC(=N)N)NC(=O)[C@@H](NC(=O)CNC(=O)[C@H](CC(C)C)NC(=O)[C@H](CCCCN)NC(=O)[C@H](CCCNC(=N)N)NC(=O)[C@H](CCC(=O)O)NC(=O)[C@H](CC(C)C)NC(=O)CNC(=O)[C@@H](N)CCCNC(=N)N)C(C)C)[C@@H](C)CC)C(=O)NCC(=O)N[C@@H](CCCNC(=N)N)C(=O)N[C@@H](CCCNC(=N)N)C(=O)N[C@@H](CC(C)C)C(=O)NCC(=O)N[C@@H](CCCNC(=N)N)C(=O)N[C@H](C(=O)N[C@@H](CC(C)C)C(=O)NCC(=O)N[C@@H](CCC(=O)O)C(=O)N[C@@H](Cc1c[nH]c2ccccc12)C(=O)N[C@@H](CCC(=O)O)C(=O)N[C@H](C(=O)N[C@@H](CCC(=O)O)C(=O)O)C(C)C)[C@@H](C)CC  MIC (Staphylococcus aureus): 32 µM (≈ 106 µg/mL)
COc1cc2c(cc1-n1ccnc1)C[C@H]1[C@H]3CCCC[C@@]23CCN1C  half-life (metabolic stability; mouse liver microsomes): 14.6 min
O=C(NCCCN1CCCC2=CC3CC(CN4CCCCC34)C21)c1ccc(OC(F)(F)F)cc1 (stereo not drawn)  pIC50 (HIV-1 NL4-3 Nanoluc; viral replication; MT-4): < 4.40
CC[C@H](C)[C@H](NC(=O)[C@@H]1CCCN1C(=O)[C@H](CS)NC(=O)[C@H](Cc1ccc(O)cc1)NC(=O)[C@@H]1CCCN1C(=O)[C@H](CC(C)C)NC(=O)[C@H](CCCNC(=N)N)NC(=O)[C@H](CO)NC(=O)[C@H](Cc1ccc(O)cc1)NC(=O)[C@H](Cc1ccccc1)NC(=O)[C@H](CC(N)=O)NC(=O)[C@H](CCCNC(=N)N)NC(=O)[C@H](CS)NC(=O)[C@H](Cc1ccc(O)cc1)NC(=O)[C@H](CO)NC(=O)CNC(=O)[C@H](CO)NC(=O)[C@@H]1CCCN1C(=O)[C@H](CC(C)C)NC(=O)[C@H](Cc1ccc(O)cc1)NC(=O)[C@H](C)NC(=O)[C@@H]1CCCN1C(=O)[C@H](CCCNC(=N)N)NC(=O)CN)C(=O)N[C@@H](CCCNC(=N)N)C(=O)NCC(=O)NCC(=O)N[C@@H](Cc1c[nH]cn1)C(=O)N[C@@H](CS)C(=O)N[C@@H](CCCNC(=N)N)C(=O)O  MIC (Escherichia coli): 8 µM (≈ 27.6 µg/mL)
FC(F)(F)Oc1ccc(CCNc2cc(-c3ccccc3)nc3ncnn23)cc1  CC50 (HepG2): > 100000 nM
CCN(CC)CCCNC(=O)c1cn(CCCc2ccccc2)c2cc(Cl)ccc2c1=O  pIC50 (several cancer cell lines; range over cell lines): 5.17 to 5.31
O=S(=O)(c1ccc(-c2ccc3ncnc(Nc4ccc(OCc5cccc(Cl)c5)c(Cl)c4)c3c2)cc1)N1CCOCC1  pEC50 (Trypanosoma brucei; parasite growth): 6.18
COC(=O)OC1C(=O)C2(C)C(O)CC3OCC3(OC(C)=O)C2C(OC(=O)c2cccc(OC(F)F)c2)C2(O)CC(OC(=O)C(O)C(C=C(C)C)NC(=O)OC(C)(C)C)C(C)=C1C2(C)C (stereo not drawn)  pIC50 (CFPAC-1; cytotoxicity): 9.31
Cc1ccncc1CC(=O)Nc1cccc2c1CNCC2  inhibition (main protease (Mpro); 20 µM): -1.08%
O=C(CCCc1ccccc1)NC1CCOC1=O (stereo not drawn)  inhibition (lasR; lasI-lacZ reporter, inhibitor; 5 µM): 20%
CC[C@H](C)[C@H](NC(=O)[C@H](CCCCN)NC(=O)[C@H](CCCNC(=N)N)NC(=O)[C@H](CCCCN)NC(=O)[C@H](CC(C)C)NC(=O)[C@H](Cc1ccccc1)NC(=O)[C@H](CCC(=O)O)NC(=O)[C@H](CCCCN)NC(=O)[C@@H](NC(=O)[C@@H](NC(=O)[C@H](CCC(=O)O)NC(=O)[C@H](C)NC(=O)CNC(=O)[C@@H](N)CCCNC(=N)N)[C@@H](C)O)C(C)C)C(=O)N[C@@H](CCCNC(=N)N)C(=O)N[C@@H](CCC(=O)O)C(=O)N[C@@H](CCCNC(=N)N)C(=O)NCC(=O)N[C@H](C(=O)N[C@@H](CCCCN)C(=O)N[C@@H](C)C(=O)N[C@H](C(=O)N[C@H](C(=O)N[C@@H](C)C(=O)N[C@@H](Cc1c[nH]c2ccccc12)C(=O)O)[C@@H](C)CC)C(C)C)[C@@H](C)O  MIC (Escherichia coli): > 128 µM

Excerpt of the above:
O=C(CCCc1ccccc1)NC1CCOC1=O (stereo not drawn)  inhibition (lasR; lasI-lacZ reporter, inhibitor; 5 µM): 20%
COC1C2(O)C(=O)N3C=CC(C)(C)c4[nH]c5ccccc5c4C=C3C(=O)N2C23C(C)C(C)(C)N2c2ccccc2C13O (stereo not drawn)  concentration for inward current (GABA-gated chloride channel, Bombyx mori; larval neurons; blocked by fipronil): ≥ 300 nM
CC[C@H](C)[C@H](NC(=O)[C@H](CCCCN)NC(=O)[C@H](CCCNC(=N)N)NC(=O)[C@H](CCCCN)NC(=O)[C@H](CC(C)C)NC(=O)[C@H](Cc1ccccc1)NC(=O)[C@H](CCC(=O)O)NC(=O)[C@H](CCCCN)NC(=O)[C@@H](NC(=O)[C@@H](NC(=O)[C@H](CCC(=O)O)NC(=O)[C@H](C)NC(=O)CNC(=O)[C@@H](N)CCCNC(=N)N)[C@@H](C)O)C(C)C)C(=O)N[C@@H](CCCNC(=N)N)C(=O)N[C@@H](CCC(=O)O)C(=O)N[C@@H](CCCNC(=N)N)C(=O)NCC(=O)N[C@H](C(=O)N[C@@H](CCCCN)C(=O)N[C@@H](C)C(=O)N[C@H](C(=O)N[C@H](C(=O)N[C@@H](C)C(=O)N[C@@H](Cc1c[nH]c2ccccc12)C(=O)O)[C@@H](C)CC)C(C)C)[C@@H](C)O  MIC (Escherichia coli): > 128 µM
CCn1c(C)c(CC(=O)N[C@@H](Cc2ccccc2)C(=O)N(C)c2ccc(F)cc2)c2ccccc21  ΔTm (HIV-1 capsid hexamer wild type): 10.7 °C
